Results of several laboratories.
Lines come from different studies, so protocols differ. ± gives the spread as reported.

| Molecule | assay | system | conditions | Tmax |
| --- | --- | --- | --- | --- |
| CC(C)[C@H](N)C(=O)NCCCS(=O)(=O)O | – | healthy human, both sexes, plasma | oral, 100 mg capsule, median | 0.51 h |
| COc1cc(Nc2ncc3c(n2)-c2ccc(Cl)cc2C(c2c(F)cccc2OC)=NC3)ccc1C(=O)O | – | human, phase I | oral, 40 mg single dose | 10.6 ± 9.5 h |
| Cc1cc(-c2nnc(N)nc2-c2ccc(F)cc2)cc(Cl)n1 | – | human patients, plasma | oral, single dose | 0.5 to 2 h |
| COCCCCn1c(C(=O)N(CC(C)C)[C@@H]2CNC[C@H](C(=O)N3CCOCC3)C2)nc2ccccc21 | – | human, elderly, plasma | oral, 80 mg once daily, day 1, median | 1.5 h |
| Nc1ncc(-c2cnn(CCO)c2)c2scc(-c3ccc(NC(=O)Nc4cccc(F)c4)cc3)c12 | – | human patients, plasma | oral, all doses pooled, first dose, single dose | ~3 h |
| C=C(C)[C@@H]1CC[C@]2(NCCN3CCS(=O)(=O)CC3)CC[C@]3(C)[C@H](CC[C@@H]4[C@@]5(C)CC=C(C6=CC[C@@](CF)(C(=O)O)CC6)C(C)(C)[C@@H]5CC[C@]43C)[C@@H]12 | – | human, plasma | oral, 200 mg multiple doses, day 1 | 4 h |
| CCOC(=O)C1=C[C@@H](OC(CC)CC)[C@H](NC(C)=O)[C@@H](N)C1 | – | healthy Indian human, plasma | oral, 75 mg single, test capsule fed | 2.69 ± 0.96 h |
| COC(=O)c1ccc2c(c1)NC(=O)/C2=C(\Nc1ccc(N(C)C(=O)CN2CCN(C)CC2)cc1)c1ccccc1 | – | human, hepatic impairment Child-Pugh A, plasma | oral, 100 mg single dose, median | 4 h |
| CC(=O)N[C@H]1CC[C@H](NC(=O)CN2CCN(c3nncc(-c4ccc(C)cc4)n3)CC2)CC1 | – | human, plasma | oral, 120 mg once daily, day 1, fed, median | 3 h |
| CCOc1ccc(Cc2cc([C@]34OC[C@](CO)(O3)[C@@H](O)[C@H](O)[C@H]4O)ccc2Cl)cc1 | – | healthy human, plasma | oral, 15 mg, 20% glucose solution, added: glimepiride 1 mg | 2 h |
| NC(=O)N1CCC(CC(=O)N2CCC([C@H]3c4ncc(Br)cc4CCc4cc(Cl)cc(Br)c43)CC2)CC1 | – | human, plasma | oral, 200 mg twice daily, cycle 1 day 15, multiple dose, median, added: gemcitabine 600 mg/m2 | 6 h |
| CN(Cc1cnc2nc(N)nc(N)c2n1)c1ccc(C(=O)N[C@@H](CCC(=O)O)C(=O)O)cc1 | – | human, both sexes, plasma | oral, 20 mg, day 1, alone, median | 1.5 h |
| CC(C)(/C=C(\C#N)C(=O)N1CCC[C@@H](n2nc(-c3ccc(Oc4ccccc4)cc3F)c3c(N)ncnc32)C1)N1CCN(C2COC2)CC1 | – | human, plasma | oral, 100 mg single dose, median | ~1 h |
| Cc1ccsc1C(=O)Nc1cc(CN2CCN(C(=O)CO)CC2)ccc1/C=C/c1n[nH]c2ccccc12 | – | human patients, plasma | oral, 50 mg/day, day 1 | 1.86 ± 0.73 h |
| CCS(=O)(=O)N1CC(CC#N)(n2cc(-c3ncnc4[nH]ccc34)cn2)C1 | – | healthy Chinese human, plasma | oral, once daily, 2 to 10 mg, day 10 | 0.5 to 1 h |
| Nc1nc2[nH]cc(CCc3ccc(C(=O)N[C@@H](CCC(=O)O)C(=O)O)cc3)c2c(=O)[nH]1 | – | human cancer patients, plasma | intravenous, dose not given, cycle 2 day 1, added: regorafenib for 21 days | 0.17 h |
| Cn1ncc(Cl)c1-c1cc(C(=O)N[C@H](CN)Cc2ccc(F)c(F)c2)oc1Cl | – | human patients, plasma | oral, 20 mg, single dose, fasting | 3.13 h |
| O=C(O)[C@H](c1ccccc1Cl)N1CCc2sccc2C1 | – | human patients, CYP3A4 wt/wt, plasma | oral, 75 mg clopidogrel daily, day 7, median | 1 h |
| [13C7]venetoclax | – | human, plasma | intravenous, 100 µg, 15 min infusion, added: venetoclax 100 mg oral | 0.25 h |
| COc1ccnc(C[S+]([O-])c2nc3ccc(OC(F)F)cc3[nH]2)c1OC (stereo not drawn) | HPLC | human CYP2C19 ultra-rapid metabolizers, plasma | oral, 40 mg/day, day 1, esomeprazole | 2 h |
| CCCC[C@H](NC(C)=O)C(=O)N[C@H]1CCC(=O)NC[C@@H](C(=O)N[C@@H](Cc2c[nH]c3ccccc23)C(N)=O)NC(=O)[C@H](CCCNC(=N)N)NC(=O)[C@@H](Cc2ccccc2)NC(=O)[C@H](Cc2c[nH]cn2)NC1=O | – | healthy human, both sexes, plasma | subcutaneous, 3.0 mg once daily, day 1, median | 0.6 h |
| O=C(c1nc2n(n1)[C@H](c1ccccc1)C[C@@H]2F)C1CC1 | – | human | oral, 75 mg, single dose, high-fat meal, median | 4 h |
| CC[C@H](C)[C@@H]1NC(=O)[C@H](CCCNC(=N)N)NC(=O)[C@H](CC(=O)O)NC(=O)[C@H](CC(C)C)NC(=O)[C@H](CCCCN)NC(=O)[C@H](CC(C)C)NC(=O)CNC(=O)[C@H](Cc2ccccc2)NC(=O)[C@@H](NC(=O)CNC(=O)[C@H](CCCCN)NC(=O)[C@H](CO)NC(=O)[C@H](CC(C)C)NC(=O)CNC(=O)[C@H](CCCCN)NC(=O)[C@H](CCCCN)NC(=O)[C@H](CC(N)=O)NC(=O)[C@H](C)NC(=O)CNC(=O)[C@H](CCCCN)NC(=O)[C@H](Cc2ccc(O)cc2)NC(=O)[C@H](CCCCN)NC(=O)[C@H](CCCNC(=N)N)NC(=O)[C@H](C)NC(=O)[C@H](CC(N)=O)NC(=O)[C@@H]2CCCN2C(=O)[C@H](Cc2c[nH]cn2)NC(=O)[C@H](CCC(=O)O)NC(=O)[C@H](CCC(N)=O)NC(=O)CNC(=O)[C@@H]2CCCN2)CSSC[C@@H](C(=O)O)NC(=O)CNC(=O)[C@H](CC(C)C)NC(=O)CNC(=O)[C@H](CO)NC(=O)[C@H](CCSC)NC(=O)[C@H](CO)NC(=O)CNC1=O | ECLA | human, plasma | subcutaneous, 15 µg/kg once daily, week 26 | 0.242 h |
| O=C(Nc1c(Cl)cncc1Cl)c1ccc(OC(F)F)c(OCC2CC2)c1 | – | human adolescents, 12-17 years, plasma | topical, 0.3% cream once daily, day 15 | 10.4 h |

| Molecule | assay | system | conditions | Tmax |
| --- | --- | --- | --- | --- |
| COc1cc(N2CCC(N3CCN(C)CC3)CC2)ccc1Nc1ncc(Cl)c(Nc2ccccc2P(C)(C)=O)n1 | – | healthy humans, plasma | oral, 90 mg, median, added: itraconazole 200 mg twice daily | 2.6 h |
| O=c1[nH]c(=O)c(Cc2cccc(C(F)(F)F)c2)c([C@H]2CC[C@H](c3ccccc3)CC2)[nH]1 | – | human, fasted, plasma | oral, 900 mg single dose, median | 4 h |
| CC(C)NC[C@@H](C(=O)N1CCN(c2ncnc3c2[C@H](C)C[C@H]3O)CC1)c1ccc(Cl)cc1 | – | human, Mild hepatic function (Child-Pugh), plasma | oral, 100 mg single dose, median | 1 h |
| CC(C)(C)OC[C@@H]1C(=O)NCCN1C(=O)C[C@H](N)Cc1cc(F)c(F)cc1F | – | human, male, plasma | oral, single dose, fixed-dose combination with metformin, fed high-fat, median | 5 h |
| CS(=O)(=O)n1cc2c(n1)CN([C@H]1CO[C@H](c3cc(F)ccc3F)[C@@H](N)C1)C2 | – | healthy male human, plasma | oral, 100 mg once weekly, day 1, fasted, median | 2.5 h |
| CNc1nc(Nc2ccc(-n3cnc(C)n3)c(OC)c2)nc2c1CC[C@H]2c1ccc(F)cc1 | – | human | oral, 100 mg once daily, day 28, multiple ascending dose, median | 5 h |
| O=C([O-])CCCCCCCNC(=O)c1ccccc1O.[Na+] | – | human, severe hepatic impairment, plasma | oral, once daily, day 10, after dose 10, median | 0.52 h |
| C=C(C)[C@@H]1CC[C@]2(NCCN3CCS(=O)(=O)CC3)CC[C@]3(C)[C@H](CC[C@@H]4[C@@]5(C)CC=C(C6=CC[C@@](CF)(C(=O)O)CC6)C(C)(C)[C@@H]5CC[C@]43C)[C@@H]12 | – | human, HIV-1 treatment-naive, plasma | oral, 200 mg single with food, day 1 | 5.53 h |
| COc1ccc2nc([S@@+]([O-])Cc3ncc(C)c(OC)c3C)[nH]c2c1 | HPLC | human CYP2C19 poor metabolizers, plasma | oral, 40 mg/day, day 5, pantoprazole | 2.6 ± 1.34 h |
| Cc1ccc(NC(=O)c2ccc(CN3CCNCC3)cc2)cc1Nc1nccc(-c2cccnc2)n1 | – | human patients, plasma | oral, 400 mg/day of imatinib, day 14 of cycle 1, added: IL-2 6 MIU/day days 10-14 | 3.8 h |
| CC(=O)c1c(C)c2cnc(Nc3ccc(N4CCNCC4)cn3)nc2n(C2CCCC2)c1=O | – | human | oral, 50 mg/m^2 single dose, day 1 | 6.6 ± 2 h |
| Cc1nc(Nc2ncc(C(=O)Nc3c(C)cccc3Cl)s2)cc(N2CCN(CCO)CC2)n1 | – | human, plasma | oral, 100 mg, without omeprazole, median, range 0.5 to 3 h | 1.2 h |
| O=C(Cc1cccc(OC(F)(F)F)c1)Nc1ccc(CCCCc2nnc(NC(=O)Cc3ccccn3)s2)nn1 | – | human | oral, 1000 mg twice daily, fed, steady state, cycle 1 day 15 | 6.08 h |
| Cc1ccc(NC(=O)c2ccc(CN3CCN(C)CC3)cc2)cc1Nc1nccc(-c2cncc(-c3oncc3C)c2)n1 | – | older healthy human adults, plasma | oral, 125 mg single dose, fed, mean | 3.34 h |
| C#C[C@]1(CO)O[C@@H](n2cnc3c(N)nc(F)nc32)C[C@@H]1O | – | human, plasma | oral, 30 mg once weekly, week 1 | 1 h |
| COC(=O)c1ccc2c(c1)NC(=O)/C2=C(\Nc1ccc(N(C)C(=O)CN2CCN(C)CC2)cc1)c1ccccc1 | – | human, mild liver impairment, plasma | oral, 200 mg twice daily, steady state | 4 h |
| CNCc1ccc(-c2[nH]c3cc(F)cc4c3c2CCNC4=O)cc1 | – | human | oral, 80 mg once daily, day 1, single dose, median | 1.5 h |
| CNCc1ccc(-c2[nH]c3cc(F)cc4c3c2CCNC4=O)cc1 | – | human patients, female | oral, 600 mg twice daily, range | 1.7 to 5 h |
| O=C(NC[C@H](O)CO)c1ccncc1Nc1ccc(I)cc1F | – | human patients, plasma | oral, 60 mg single dose, day 8, median | 1.25 h |
| C#Cc1cccc(Nc2ncnc3cc(OCCOC)c(OCCOC)cc23)c1 | – | human, plasma | oral, day 29, median, added: dovitinib | 3 h |
| O=C(CCCCCCC(=O)Nc1ccccc1)NO | – | human patients, serum | oral, 1700 mg once daily | 1.8 h |
| CO[C@H]1C[C@@H]2CC[C@@H](C)[C@@](O)(O2)C(=O)C(=O)N2CCCC[C@H]2C(=O)O[C@H]([C@H](C)C[C@@H]2CC[C@@H](O)[C@H](OC)C2)CC(=O)[C@H](C)/C=C(\C)[C@@H](O)[C@@H](OC)C(=O)[C@H](C)C[C@H](C)/C=C/C=C/C=C/1C | – | healthy adult human, blood | 0.5 mg single dose, median, added: ritonavir-containing 3D regimen | 6 h |
| CC(C)(Sc1ccncc1-c1ccc(C#N)c2ccccc12)C(=O)O | – | human, plasma | oral, dose not given, alone or with febuxostat | 3 to 4 h |
| O=C(CCCCCCC(=O)Nc1ccccc1)NO | – | human patients, serum | oral, 100 mg twice daily, day 5, added: FOLFOX | 3.4 h |

For quick reference, copied from above:
| Molecule | assay | system | conditions | Tmax |
| --- | --- | --- | --- | --- |
| CC(C)[C@H](N)C(=O)NCCCS(=O)(=O)O | – | healthy human, both sexes, plasma | oral, 100 mg capsule, median | 0.51 h |
| CN(Cc1cnc2nc(N)nc(N)c2n1)c1ccc(C(=O)N[C@@H](CCC(=O)O)C(=O)O)cc1 | – | human, both sexes, plasma | oral, 20 mg, day 1, alone, median | 1.5 h |
| O=c1[nH]c(=O)c(Cc2cccc(C(F)(F)F)c2)c([C@H]2CC[C@H](c3ccccc3)CC2)[nH]1 | – | human, fasted, plasma | oral, 900 mg single dose, median | 4 h |
| CCS(=O)(=O)N1CC(CC#N)(n2cc(-c3ncnc4[nH]ccc34)cn2)C1 | – | healthy Chinese human, plasma | oral, once daily, 2 to 10 mg, day 10 | 0.5 to 1 h |
